Published values from different studies.
Compare with care: the assays were run in different laboratories. “And” joins repeats or separate records; there may be more than shown. ± gives the spread as reported.

Structure (SMILES)	tested on	assay	system	conditions	how to read	measurement	result
COc1ccccc1-c1n[nH]c2nc(NC3CCN(C(=O)Cc4ccc(F)cc4F)CC3)ncc12		bead binding, competition bead pull-down, item: LINJ.27.0100	Leishmania donovani axenic amastigote extract	10 µM	relative to: vehicle	relative abundance	0.16
CC[C@H](C)[C@H](NC(=O)[C@H](Cc1ccc(O)cc1)NC(=O)[C@@H](NC(=O)[C@H](CCCNC(=N)N)NC(=O)[C@@H](N)CC(=O)O)C(C)C)C(=O)N[C@@H](Cc1c[nH]cn1)C(=O)N1CCC[C@H]1C(=O)O			Beagle dogs, plasma	subcutaneous, 10 mg/kg/day, day 27, median		elimination rate constant	0.03 min⁻¹
Cc1ccc(OCCN(C)C)cc1C(=O)N[C@H](C)c1cc(-c2cccnc2N2CCCC2)nc2ccccc12	Vero E6			7.812 µM		viability	95% and 98.2%
O=C1NC2(CC2)COc2ncc(F)cc2[C@H]2COCCN2c2ccn3ncc1c3n2			Sprague-Dawley rat, female, ovaries	oral, 5 mg/kg/day, 4 weeks, end of treatment		organ-to-brain weight ratio	6.72 ± 1.28%
O=C(c1cc(Cc2n[nH]c(=O)c3ccccc23)ccc1F)N1CC(CNC2CC2)C1		general toxicity	Wistar rat	oral, multiple doses, once daily		NOAEL	30 mg/kg/day
CCCCCCCCCCCCCCCC(=O)N[C@@H](CCC(=O)NCCOCCOCCC(=O)NCCOCCOCCC(=O)NCCCC[C@H](NC(=O)[C@H](CC(=O)O)NC(=O)[C@H](CC(C)C)NC(=O)[C@H](Cc1ccc(O)cc1)NC(=O)[C@H](CCCCN)NC(=O)[C@H](CO)NC(=O)[C@H](Cc1ccc(O)cc1)NC(=O)[C@H](CC(=O)O)NC(=O)[C@H](CO)NC(=O)[C@@H](NC(=O)[C@H](Cc1ccccc1)NC(=O)[C@@H](NC(=O)CNC(=O)[C@H](CCC(N)=O)NC(=O)[C@@H](CO)NC(=O)[C@@H](N)Cc1c[nH]cn1)[C@@H](C)O)[C@@H](C)O)C(=O)N[C@@H](CCCNC(=N)N)C(=O)N[C@@H](CCCNC(=N)N)C(=O)N[C@@H](C)C(=O)N[C@@H](CCC(N)=O)C(=O)N[C@@H](CC(=O)O)C(=O)N[C@@H](Cc1ccccc1)C(=O)N[C@H](C(=O)N[C@@H](CCC(N)=O)C(=O)N[C@@H](Cc1c[nH]c2ccccc12)C(=O)N[C@@H](CC(C)C)C(=O)N[C@@H](CC(C)C)C(=O)N[C@@H](CC(N)=O)C(=O)N[C@H](C(=O)NCC(=O)NCC(=O)N1CCC[C@H]1C(=O)N[C@@H](CO)C(=O)N[C@@H](CO)C(=O)NCC(=O)N[C@@H](C)C(=O)N1CCC[C@H]1C(=O)N1CCC[C@H]1C(=O)N1CCC[C@H]1C(=O)N[C@@H](CO)C(N)=O)[C@@H](C)O)C(C)C)C(=O)O			rhesus monkey, both sexes, plasma	subcutaneous, 20 µg/kg, multiple doses, day 1		AUC(0-inf)	68.3 ± 17.6 ng·h/mL
COc1ccc(CNc2ccc3c(c2)S(=O)(=O)C=C3)cc1			male C57BL/6 mice, blood	intraperitoneal, 20 mg/kg, day 8, group average		mean corpuscular haemoglobin concentration	293 g/L
CSCC[C@H](NC(=O)CNC(=O)[C@H](CCCCN)NC(=O)[C@H](CC(C)C)NC(=O)[C@@H]1CCCN1C(=O)[C@H](CO)NC(=O)[C@H](Cc1c[nH]cn1)NC(=O)[C@H](Cc1c[nH]c2ccccc12)NC(=O)[C@H](CCCNC(=N)N)NC(=O)[C@H](CC(C)C)NC(=O)[C@H](CCCNC(=N)N)NC(=O)[C@H](Cc1c[nH]c2ccccc12)NC(=O)[C@H](CS)NC(=O)CCCCCNC(=O)CN1CCN(CC(=O)O)CCN(CC(=O)O)CCN(CC(=O)O)CC1)C(=O)O [copper-64 labelled]		PET imaging	BALB/c nude mice, liver	intravenous, dose not given, 9 h, Huh-7 tumour-bearing		tissue uptake	8.01 ± 0.62 %ID/g
CC[C@H](C)[C@H](NC(=O)[C@H](CCCNC(=N)N)NC(=O)[C@H](CCCCN)NC(=O)[C@H](Cc1ccc(O)cc1)NC(=O)[C@H](CC(=O)O)NC(=O)[C@H](C)NC(=O)CNC(=O)CCOCCOCCOCCNC(=O)CN1CCN(CC(=O)O)CCN(CC(=O)O)CCN(CC(=O)O)CC1)C(=O)N[C@H](C(=O)N[C@@H](CC(C)C)C(=O)N[C@@H](CCCCN)C(=O)N[C@H](C(=O)N[C@@H](CC(N)=O)C(N)=O)C(C)C)[C@@H](C)O [copper-64 labelled]		ex vivo gamma counting	male C57BL/6J mouse, B16-F10 tumour, intestinal lymph node	intravenous, 1.85 MBq, 20 min		tissue uptake	0.558 ± 0.249 %ID/g
CC[C@H](C)[C@H](NC(=O)[C@H](CCCNC(=N)N)NC(=O)[C@H](CCCNC(=N)N)NC(=O)[C@H](CC(C)C)NC(=O)[C@H](Cc1c[nH]c2ccccc12)NC(=O)[C@H](CCCCN)NC(=O)[C@H](CCCNC(=N)N)NC(=O)[C@H](CCCCN)NC(=O)[C@H](CCCNC(=N)N)NC(=O)[C@H](CCCNC(=N)N)NC(=O)CN)C(=O)NCC(=O)N[C@@H](CCCCN)C(=O)NCC(=O)N[C@H](C(=O)N[C@@H](CCCCN)C(=O)N[C@H](C(=O)N[C@H](C(=O)NCC(=O)NCC(=O)N[C@@H](C)C(=O)N[C@@H](C)C(=O)N[C@@H](CC(C)C)C(=O)N[C@@H](CC(=O)O)C(=O)N[C@@H](Cc1c[nH]cn1)C(=O)N[C@@H](CC(C)C)C(N)=O)[C@@H](C)CC)[C@@H](C)CC)C(C)C			zebrafish embryos 4 hpf, E3 medium	1 h		acute toxic concentration	5 µM
COc1cnc2cccc(N3CCc4c(cc(Cn5ccnc5)cc4-c4cn(C)nc4C(F)(F)F)C3=O)c2c1			BALB/c nude mice, MV4-11 xenograft	intraperitoneal, 50 mg/kg, day 21		body weight	21.7 g and 24.8 g and 21.8 g and 22.8 g
CC(C)[C@H](NC(=O)[C@@H](NC(=O)[C@H](CCCNC(=N)N)NC(=O)[C@H](CCCNC(=N)N)NC(=O)[C@H](CCCNC(=N)N)NC(=O)[C@H](CCC(N)=O)NC(=O)[C@H](CCCNC(=N)N)NC(=O)[C@H](CCCNC(=N)N)NC(=O)[C@H](CCCCN)NC(=O)[C@H](CCCCN)NC(=O)[C@H](CCCNC(=N)N)NC(=O)CN)[C@@H](C)O)C(=O)N[C@H](C(=O)N[C@@H](CO)C(=O)N1CCC[C@H]1C(=O)O)[C@@H](C)O			ICR mice, male, brain	intranasal, 20 mg/kg daily, 4 weeks		organ weight	0.547 ± 0.051 g
Cc1ccc(N2CCN(C)[C@H](C)C2)cc1C(=O)N[C@H](C)c1cc(-c2cnn(C)c2)nc2ccccc12	African green monkey cells			7.812 µM		viability	100%
C=C/C=C/C[C@@H](C)[C@@H](O)[C@H]1C(=O)N[C@@H](CC)C(=O)N(C)CC(=O)N(C)[C@@H](CC(C)C)C(=O)N[C@@H](C(C)C)C(=O)N(C)[C@@H](CC(C)C)C(=O)N[C@@H](C)C(=O)N[C@H](C)C(=O)N(C)[C@@H](CC(C)C)C(=O)N(C)[C@@H](CC(C)C)C(=O)N(C)[C@@H](C(C)C)C(=O)N1C			Wistar Kyoto rat, male, plasma	ip, 0.5 mg/kg/day, day 18		plasma total Ca2+	2.61 ± 0.06 mmol/L
CCN(CCCCOc1ccc(CCC(=O)N2CCC(Cc3ccccc3)CC2)cc1OC)Cc1ccccc1			Sprague-Dawley rats, both sexes, faeces	oral gavage, 25 mg/kg, 12 to 24 h	relative to: dose	excretion rate	0.356 ± 0.11%
CC(C)(C)C(=O)OCOP(=O)(OCOC(=O)C(C)(C)C)C1CCCN(O)C1=O (stereo not drawn)	MDA-MB-231					GI50	397 nM
CSCC[C@H](N)C(=O)N[C@@H](C)C(=O)N[C@@H](CCCNC(=N)N)C(=O)N[C@@H](CCCNC(=N)N)C(=O)N[C@@H](CC(=O)O)C(=O)N[C@@H](CCCCN)C(=O)N[C@H](C(=O)N[C@@H](CC(=O)O)C(=O)N[C@@H](Cc1ccccc1)C(=O)N[C@@H](C)C(=O)N[C@@H](CCCNC(=N)N)C(=O)N[C@@H](CCCNC(=N)N)C(=O)N[C@@H](CCCNC(=N)N)C(=O)N[C@@H](CCCNC(=N)N)C(=O)NCCCCCC(=O)NCCCCC(NC(=O)CCCCCNC(=O)[C@H](CCCNC(=N)N)NC(=O)[C@H](CCCNC(=N)N)NC(=O)[C@H](CCCNC(=N)N)NC(=O)[C@H](CCCNC(=N)N)NC(=O)[C@H](C)NC(=O)[C@H](Cc1ccccc1)NC(=O)[C@H](CC(=O)O)NC(=O)[C@@H](NC(=O)[C@H](CCCCN)NC(=O)[C@H](CC(=O)O)NC(=O)[C@H](CCCNC(=N)N)NC(=O)[C@H](CCCNC(=N)N)NC(=O)[C@H](C)NC(=O)[C@@H](N)CCSC)[C@@H](C)O)C(=O)NCCCCC(NC(=O)C(CCCCNC(=O)CCCCCNC(=O)[C@H](CCCNC(=N)N)NC(=O)[C@H](CCCNC(=N)N)NC(=O)[C@H](CCCNC(=N)N)NC(=O)[C@H](CCCNC(=N)N)NC(=O)[C@H](C)NC(=O)[C@H](Cc1ccccc1)NC(=O)[C@H](CC(=O)O)NC(=O)[C@@H](NC(=O)[C@H](CCCCN)NC(=O)[C@H](CC(=O)O)NC(=O)[C@H](CCCNC(=N)N)NC(=O)[C@H](CCCNC(=N)N)NC(=O)[C@H](C)NC(=O)[C@@H](N)CCSC)[C@@H](C)O)NC(=O)CCCCCNC(=O)[C@H](CCCNC(=N)N)NC(=O)[C@H](CCCNC(=N)N)NC(=O)[C@H](CCCNC(=N)N)NC(=O)[C@H](CCCNC(=N)N)NC(=O)[C@H](C)NC(=O)[C@H](Cc1ccccc1)NC(=O)[C@H](CC(=O)O)NC(=O)[C@@H](NC(=O)[C@H](CCCCN)NC(=O)[C@H](CC(=O)O)NC(=O)[C@H](CCCNC(=N)N)NC(=O)[C@H](CCCNC(=N)N)NC(=O)[C@H](C)NC(=O)[C@@H](N)CCSC)[C@@H](C)O)C(N)=O)[C@@H](C)O (stereo partly drawn)			C57BL/6 mouse female, thymus	dose not given, 3 h	relative to: total	mean tissue distribution	0.44%
CC(C)[C@@H]1NC(=O)CNC(=O)[C@H](CC(N)=O)NC(=O)[C@H](CCCNC(=N)N)NC(=O)[C@H](Cc2ccc(O)cc2)NC(=O)[C@H](C(C)C)NC(=O)[C@@H](NC(=O)[C@@H](NC(=O)[C@H](CC(N)=O)NC(=O)[C@H](Cc2c[nH]c3ccccc23)NC(=O)[C@H](C)NC(=O)[C@H](Cc2ccccc2)NC(=O)CNC(=O)[C@H](CCCCN)NC(=O)[C@H](Cc2ccccc2)NC(=O)[C@H](Cc2ccccc2)NC(=O)[C@H](CCCCN)NC(=O)OCC2c3ccccc3-c3ccccc32)C(C)C)CSSC[C@@H](C(=O)N[C@@H](Cc2c[nH]cn2)C(=O)N[C@@H](CCCNC(=N)N)C(=O)N[C@@H](CCCNC(=N)N)C(=O)N[C@@H](C)C(=O)N[C@@H](CC(N)=O)C(N)=O)NC(=O)[C@H](C(C)C)NC(=O)[C@H](CCCNC(=N)N)NC1=O			ICR mouse	ip, 5 mg/kg	direction not given	breathing score	0

Excerpt of the above:
Structure (SMILES)	tested on	assay	system	conditions	how to read	measurement	result
O=C1NC2(CC2)COc2ncc(F)cc2[C@H]2COCCN2c2ccn3ncc1c3n2			Sprague-Dawley rat, female, ovaries	oral, 5 mg/kg/day, 4 weeks, end of treatment		organ-to-brain weight ratio	6.72 ± 1.28%
O=C(c1cc(Cc2n[nH]c(=O)c3ccccc23)ccc1F)N1CC(CNC2CC2)C1		general toxicity	Wistar rat	oral, multiple doses, once daily		NOAEL	30 mg/kg/day
